Results collected from several papers.
A part holds a random share of what one study measured.
UniProt P10721, sequence (whole entry, unmodified, looked up): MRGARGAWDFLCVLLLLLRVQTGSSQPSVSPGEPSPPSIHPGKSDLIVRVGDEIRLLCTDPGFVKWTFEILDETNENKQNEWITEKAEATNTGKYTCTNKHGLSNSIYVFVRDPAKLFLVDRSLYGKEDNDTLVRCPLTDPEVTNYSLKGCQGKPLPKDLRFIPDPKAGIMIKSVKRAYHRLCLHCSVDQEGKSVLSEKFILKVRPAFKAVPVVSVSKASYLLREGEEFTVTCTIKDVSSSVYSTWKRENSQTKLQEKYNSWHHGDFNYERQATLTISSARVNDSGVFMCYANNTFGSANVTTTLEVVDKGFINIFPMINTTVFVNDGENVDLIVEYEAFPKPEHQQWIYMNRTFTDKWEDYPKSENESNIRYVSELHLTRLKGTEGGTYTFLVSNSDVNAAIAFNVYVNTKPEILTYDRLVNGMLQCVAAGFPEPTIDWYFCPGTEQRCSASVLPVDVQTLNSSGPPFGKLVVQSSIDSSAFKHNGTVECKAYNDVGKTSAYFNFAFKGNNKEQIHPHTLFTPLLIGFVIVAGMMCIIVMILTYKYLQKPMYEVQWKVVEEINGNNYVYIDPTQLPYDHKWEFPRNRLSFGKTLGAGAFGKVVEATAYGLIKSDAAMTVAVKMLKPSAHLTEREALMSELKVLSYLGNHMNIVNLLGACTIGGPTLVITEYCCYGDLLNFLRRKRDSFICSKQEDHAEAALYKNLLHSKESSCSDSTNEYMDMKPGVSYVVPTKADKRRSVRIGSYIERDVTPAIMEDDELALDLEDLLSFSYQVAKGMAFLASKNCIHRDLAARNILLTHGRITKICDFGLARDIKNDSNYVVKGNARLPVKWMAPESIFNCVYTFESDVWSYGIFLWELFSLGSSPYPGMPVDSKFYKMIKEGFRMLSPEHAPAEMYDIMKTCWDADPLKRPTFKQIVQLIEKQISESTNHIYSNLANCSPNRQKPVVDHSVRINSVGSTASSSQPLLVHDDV
UniProt Q9NRH2, sequence (whole entry, looked up): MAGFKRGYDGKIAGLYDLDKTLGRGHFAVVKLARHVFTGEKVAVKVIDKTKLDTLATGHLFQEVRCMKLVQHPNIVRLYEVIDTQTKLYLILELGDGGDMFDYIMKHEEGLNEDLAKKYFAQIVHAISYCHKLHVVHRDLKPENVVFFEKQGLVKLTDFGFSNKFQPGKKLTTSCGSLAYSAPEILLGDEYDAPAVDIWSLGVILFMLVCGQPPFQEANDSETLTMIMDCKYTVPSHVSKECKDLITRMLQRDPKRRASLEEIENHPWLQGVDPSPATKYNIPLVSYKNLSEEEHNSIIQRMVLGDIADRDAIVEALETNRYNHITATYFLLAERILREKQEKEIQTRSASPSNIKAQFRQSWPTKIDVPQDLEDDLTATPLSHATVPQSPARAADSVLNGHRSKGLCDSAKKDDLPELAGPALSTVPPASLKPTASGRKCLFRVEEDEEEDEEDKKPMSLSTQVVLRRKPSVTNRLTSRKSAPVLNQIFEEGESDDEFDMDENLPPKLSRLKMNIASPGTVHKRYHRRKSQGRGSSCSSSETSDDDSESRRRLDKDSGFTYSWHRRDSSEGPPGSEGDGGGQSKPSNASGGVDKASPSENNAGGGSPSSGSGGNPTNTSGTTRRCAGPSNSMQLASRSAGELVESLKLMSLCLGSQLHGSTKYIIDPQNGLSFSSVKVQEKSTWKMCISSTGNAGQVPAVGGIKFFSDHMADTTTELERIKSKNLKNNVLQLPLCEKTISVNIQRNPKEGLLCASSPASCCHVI

Block 1 — host: mouse; medium: microsomes or S9; concentration: 2 µM; time: 0.5 h
SMILES | remaining compound
CC(C)c1nc(OCC(=O)O)c(C#N)c2c1COC(C)(C)C2 | 80%
Fc1ccc(Oc2ccccc2CNc2nnco2)c(Cl)c1 | 0.0374%
CCC(CO)NCc1ccc(OCc2cccs2)cc1 (stereo not shown) | 1.33%
COC(=O)c1ccc(-c2ccccc2NS(C)(=O)=O)s1 | 57.3%

Block 2 — technique: protein-binding microarray; form: double-stranded DNA, one strand shown; medium: in vitro; concentration: 250 nM; notes: 60-bp whole probe; together with: salmon DNA 0.4 mg/ml; reference: random background probes; direction: higher = stronger binding; shared flanks, not repeated: GCCTAGCAC … GTCTTGATTCGCTTGACGCTGCTG
Target: Interferon regulatory factor 5, full length, phosphomimetic (IRF5, Homo sapiens, UniProt Q13568-2, residues 1-514, K96S/S451D/S453D/S456D/S462D)
Oligonucleotide | log fluorescence [z-score]
TTAGATATCAGTATCGATAAGTGCTAG | 7.74
TTAGATCTCAAACTGGATTAGTGCTAG | -0.111
TTAGGACTGGTACTGCTTTAGTGCTAG | -0.285
TTAGAACTAAGTCTCGATTAGTGCTAG | 0.692
TTAGGACTGGGGTTTCGGTAAGTGCTA | 5.16
GACCGTATCGGGTTTCGGGACGTGCTA | 4.61
TTAGAAGTGGGGACTGGATTAGTGCTA | -0.416
TGTTTCCTCTTTCTTTGCTTGTGCTAG | 2.02

Block 3 — effect on: cell-free assay; technique: competition with immobilised ligand; concentration: 1 µM
Compound: C[C@H](NC(=O)c1cnc2n1[C@](C)(Cc1ccc(C#N)cc1)C(=O)N2c1cc(Cl)c(F)c(Cl)c1)C(=O)NC1(c2ccccn2)CC1
target | remaining binding [%]
KIT (Homo sapiens, UniProt P10721, T670I/V559D) | 100
SNRK (Homo sapiens, UniProt Q9NRH2) | 100
Tyrosine-protein kinase ABL1, non-phosphorylated (ABL1, Homo sapiens, UniProt P00519, H396P) | 83

Other studies, line by line
Substance | partner | assay | test system | conditions | quantity | result
UTP25 (Homo sapiens, UniProt Q68CQ4) | HEATR1 (Homo sapiens, UniProt Q9H583) | cross-linking MS | cell fractions | together with: DSSO | cross-linked residues | K756 to K1827

For quick reference, copied from above (other studies, line by line):
Substance | partner | assay | test system | conditions | quantity | result
UTP25 (Homo sapiens, UniProt Q68CQ4) | HEATR1 (Homo sapiens, UniProt Q9H583) | cross-linking MS | cell fractions | together with: DSSO | cross-linked residues | K756 to K1827
